# Published values pooled from the literature.
# Parts stem from different laboratories: compare values within a part only. Changes are numbered by the printed parent chain.

# Sample 1
# Target: RNA binding protein fox-1 homolog 2, RRM domain, GST-SBP tag (RBFOX2, Homo sapiens, UniProt O43251-10, residues 100-194)
# Method: RNA Bind-n-Seq
# Molecule type: RNA
# Matrix: in vitro
# Concentration: 365 nM
# Notes: natural RNA segment, single round, ends assumed
# Reference: no-protein control
# Direction: higher = stronger binding
# Shared flanks, not repeated: GGGAGUUCUACAGUCCGACGAUC … UGGAAUUCUCGGGUGCCAA
# Construct (chain): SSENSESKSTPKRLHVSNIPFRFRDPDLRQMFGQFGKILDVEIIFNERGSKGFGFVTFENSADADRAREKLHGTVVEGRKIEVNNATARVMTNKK
Oligonucleotide,RBNS enrichment (R)
AAUUCAACAAUCUGAGAGAGAAAACUUAAUCCAAUGGCAGAGAAGCUUCUGAGUUUUAUAUUGUUUGCAUCCCAUUGCCCUCAAUAAAGAAAGUCCUUUUUUUAAGUUCU,0.569
UUUCAUCUGUGUUCUGAAAUAUAAAAUACAACCAAAAUUCUACCUUCAUCCUACCCAGAAAUUAUUGAUUUUCAAGUUUUAAAAAAAUUGUACCUUUUUUGCUGACAGAA,0.755
AAGCAAGAGACUAAUAGGUUUUGGAACAGAGACUCUUCUGCCUCCACAGGGCAUGGAACCCUGAACCAGAAUGUCCCUGCAGUGCCGGAGAGGUCGCCGUGGGAAAACAG,0.243
UUUGGUUUCUGGCUUUUUGUUUUGUUUUGUGGACCCGCCUGAGCACCAUUGACUGCCUGCUGUUCCGUUUCUCCCUAUGCAAACAAACAAAAACAGUGAGGGGGUCCAUA,2.25
CGUUCCCGGGAAACGACCAAACGAACCGAACACAUAUAAACAAGGCACAGAGAAGUGGCCACAGCCUUCCCACCCCACGACCAGAGACUGGCCUGGCCUCACUGCUUUCA,0.651
UUUAAUGAAUUCACAUGAAAGGGGUAGUCUGAGUGACACAGUUCCCCACUCCGUACUGUAUUUUGCCAUUCUGCCGUAGCUAGAUGUUCUGUGGGGUUUGUUAACAUGGA,1.3
UCACUUUGUAGACCAGGCUGGCCUCGAACUCAGAAAUCCGCCUGCCUCUGCCUCCCGAGUGCUGGGAUUAAAGGCGUGCGCCACCACGCCCGGCUCUGUUCAUCCUUUUA,0.339
GACACUCGAGCCUCUGCUCUCACCUUGCCCUGUUUGGGUUUUUAUCAGCCGUGUCUGCAUUGGAGCCUCACUGCAGUGUUCCUGGUGGCUCCUCUUAACUCCUGCUGCUG,0.325
UUUUUGAAAGCUUCCUAGCUGGAGGUAUGAUCAGAAAACCAAUUUACUGAAAAACUGCACAAGAAGGUACCGUGAAUGUAAUUUCCUAGCAGGCCACUCUGCAUCUGUUA,0.321
AAAACCGAGAGCUUCACUAAAUGGUAGAUUUUGCUGUCAGAGACCCUACAAUAAGAUUGUUUUAUCUGUACAUUUUUUCAGAUAUUUAACUGUAUAAAAUGUUCAUUUUA,0.4
ACCUCAUUCUGGUUUCAGUGUUACUUGUGCGCAUGUGUGUGUGUGUCUGCAGAUGGAAAUCAUUCCCCACUGGCAGUAUCUGCUCGGGUUCAACGCUCUGUCCUCUGAGG,4.09
GCACAUCACUUCCUUCCUGAAAGCCUAAGAGUGUGUAUGUUUGUGUAUGCACAGAGCAGACAGACUAAUGGAUCUCUGUUUUCUGCCAGUCAUCAGUGUGCCCUUGAAGC,0.645

# Sample 2
# Target: Interferon regulatory factor 5, full length, phosphomimetic (IRF5, Homo sapiens, UniProt Q13568-2, residues 1-514, S451D/S453D/S456D/S462D)
# Method: protein-binding microarray
# Molecule type: double-stranded DNA, one strand shown
# Matrix: in vitro
# Concentration: 940 nM top
# Notes: 60-bp whole probe
# Added: salmon DNA 0.4 mg/ml
# Reference: random background probes
# Direction: higher = stronger binding
# Shared flanks, not repeated: GCCTAGCAC … GTCTTGATTCGCTTGACGCTGCTG
Oligonucleotide,fitted relative affinity
GACGGTATCGGGACCGGGGACGTGCTA,3.38 z-score
TTAGGTTTCCTTATCCGTTAGTGCTAG,1.89 z-score
AGTCTTCTCCTCTAGGTTCTCGTGCTA,0.603 z-score
TCAATTATTGTCTTCCCACTGTGCTAG,1.08 z-score
AACGATTTCAGTTTCGAGACGTGCTAG,5.03 z-score
TCATTAATAAGGTTTCCAACTGTGCTA,0.098 z-score
TCACATTTCAATTAGAAACTGTGCTAG,0.107 z-score
TTGGATCTCAGTATCGATTAGTGCTAG,4.68 z-score
TTCTAATTTACTTTGGTTGGGTGCTAG,0.718 z-score
ACTAATTTCCATTTTCTAAAGTGCTAG,1.38 z-score
ATCATTTTTGCTTACGATGCGTGCTAG,0.245 z-score
GACGGTATCGGGTAACGGGACGTGCTA,5.88 z-score
GACGGTATCGGTATCGGGAAGTGCTAG,8.83 z-score
TTAGGTTTCGGGACTGGGTAAGTGCTA,8.87 z-score
TTAGGTCTCCTACCGCTTTAGTGCTAG,-0.172 z-score
TCACTTCCCAATTCTCTTACTGTGCTA,1.82 z-score
TTAGGTTTCGGGTTTCGGTTGGTGCTA,10.6 z-score
TTAGGTTTCGGGTATCCGTTAGTGCTA,10.8 z-score
TTAGATTTCAGTCTCCATTAGTGCTAG,1.08 z-score
TTAGATCTCGGACTGGGTTAGTGCTAG,0.0493 z-score
TTAGGACTGCGGACTGGGTTAGTGCTA,-0.277 z-score
GACGATATCAGTATAGAGACGTGCTAG,0.0852 z-score
TTACGACTGGGTTTCGGTTAGTGCTAG,7.65 z-score
GACGGTATCGGGACGGGGGACGTGCTA,6.32 z-score
TCAATTCTTTTTATGCTACTGTGCTAG,1.13 z-score

# Sample 3
# Target: Fragile X messenger ribonucleoprotein 1, C-terminal low-complexity region (Fmr1, Mus musculus, UniProt P35922)
# Method: RNA Bind-n-Seq
# Molecule type: RNA
# Matrix: in vitro
# Concentration: 200 nM
# Notes: whole 134-nt RNA, ends assumed
# Added: 150 mM KCl
# Reference: input library
# Direction: higher = stronger binding
# Shared flanks, not repeated: GGGAGUUCUACAGUCCGACGAUC … UGGAAUUCUCGGGUGUCAAGG
Oligonucleotide,log2 enrichment
UGGCCCUGGUGGCAUGCGGGGAGGAAGAUGUGGCCUCAUGGAUCGUGGUGGUCCCGGUGGAAUGUUCAGAGGUGGCCGUGGUGGAGACAG,0.0744
AGUCCUGUGCUACACAUCGUAUGUACCGAAUCGUGUGUGUGUGUGUGUGUGUGUGUGAAAGUAUUAUGUUACGCCGUUCGGAUCUGCACU,0.602
AAGUCCUGUGCUACACAUCGUAUGUACCGAAUCGGGAAAGGGGAAAGGGGAAAGGGGAAAGUAUUAUGUUACGCCGUUCGGAUCUGCACU,0.206
GCAGGAAGUAAAAACAAAUGGAAAUGCUUCGGAUAGUGGCAGGGGUGGGGGUUGCUAAGGAAUGGGUGGGAUGGGAGUGGGUAAAGAGUU,0.228
AGUCCUGUGCUACACAUCGUAUGUACCGAAUCGGGCCCCGGGGCCCCGGCCCCGGGGAAAGUAUUAUGUUACGCCGUUCGGAUCUGCACU,-1.15
GUCCUGUGCUACACAUCGUAUGUACCGAAUCGGGGAAAAAGGGGUGGGGUUUUUGGGGAAAGUAUUAUGUUACGCCGUUCGGAUCUGCAC,0.518
UGAAAAUGCUUUCAUGUUAAUUGUGUACACACAUUUCAUCUGUAUCCCUGUUUCUUUUCUCCCUACAGAAACAUAUGAGGAUUUUGAUAC,0.493
UAACUUUAGAGGAGGAUCUGAUGGAUAUGGCAGUGGACGUGGAUUUGGGGAUGGCUAUAAUGGGUAUGGAGGAGUACCUGGAGGUGGCAA,0.131
AAGUCCUGUGCUACACAUCGUAUGUACCGAAUCGGUUUUUUUGGUUUUUUUGGAGGAAAGUAUUAUGUUACGCCGUUCGGAUCUGCACUU,-0.802
UAACUUUAGACGAGGAUCUGAUGGAUAUGGCAGUGGACGUGGAUUUGGGGAUGGCUAUAAUGGGUAUGGAGGAGGACCUGGAGGUGGCAA,0.311
CAAGUCCUGUGCUACACAUCGUAUGUACCGAAUCGGGUUUGGGAAAAAGGGAGGGAAAGUAUUAUGUUACGCCGUUCGGAUCUGCACUUC,1.07
AGUAGCUAUGGUCAACAAAGCAGCUAUGGGCAGCAGCCUCCCACUAGUUACCCACCCCAAACUGGAUCCUACAGCCAAGCUCCAAGUCAA,0.345
CCUCAAGUCCUGUGCUACACAUCGUAUGUACCGAAUCGGAGGGAGGGAGGGGAAAGUAUUAUGUUACGCCGUUCGGAUCUGCACUUCCAG,0.905
AAGUCCUGUGCUACACAUCGUAUGUACCGAAUCGGGUGGGAAAAAGGGUUUUUGGGAAAGUAUUAUGUUACGCCGUUCGGAUCUGCACUU,0.854

# Sample 4
# Target: CCNE1, cyclin fold, Cln2 fusion (human)
# Method: yeast growth competition, sequencing
# Matrix: yeast
# Notes: strong parent motif
# Reference: not given
# Direction: higher = stronger binding
# Parent: CDKN1B docking peptide (human); PSACRNLFGPVDH
Change,normalised enrichment score
PSECRNLFGPVDH [A3E],1.17
PSACRNLFGPGDH [V11G],2.7
PWACRNLFGPVDH [S2W],0.945
VSACRNLFGPVDH [P1V],3.56
PSACRNLFQPVDH [G9Q],1.5
PSACRNLKGPVDH [F8K],0.188
PSTCRNLFGPVDH [A3T],1.25
ASACRNLFGPVDH [P1A],3.76
PSACRQLFGPVDH [N6Q],4.5
PSACRNLQGPVDH [F8Q],0.0846
PSACRELFGPVDH [N6E],1.34
QSACRNLFGPVDH [P1Q],3.75
WSACRNLFGPVDH [P1W],3.02
PSAARNLFGPVDH [C4A],1.47
PSACRNLFGNVDH [P10N],3.65
PSACRLLFGPVDH [N6L],2.4
PSACRNLFGAVDH [P10A],2.74
PSACRNLFGPKDH [V11K],2.66
PSACRNLPGPVDH [F8P],-0.0251
PSACRNLFGPRDH [V11R],2.12
PSACRGLFGPVDH [N6G],0.0773
PSACRKLFGPVDH [N6K],3.95
PSACRNLFGDVDH [P10D],3.23
PSACRNLFGPSDH [V11S],2.72
PSHCRNLFGPVDH [A3H],2.97

# For quick reference, copied from above (sample 2):
Oligonucleotide,fitted relative affinity
ACTAATTTCCATTTTCTAAAGTGCTAG,1.38 z-score
ATCATTTTTGCTTACGATGCGTGCTAG,0.245 z-score
GACGGTATCGGGTAACGGGACGTGCTA,5.88 z-score
GACGGTATCGGTATCGGGAAGTGCTAG,8.83 z-score
TTAGGTTTCGGGACTGGGTAAGTGCTA,8.87 z-score
TTAGGTCTCCTACCGCTTTAGTGCTAG,-0.172 z-score
TCACTTCCCAATTCTCTTACTGTGCTA,1.82 z-score
